Experimental data of several laboratories.
Each numbered part is a random draw from the data of one study; scales do not carry over between parts. Substitutions count along the parent as printed.

Series 1 — target: NFE2L2, bZIP domain (human); technique: DHFR protein complementation; medium: yeast; reference: wild-type JUN-FOS pair; reading: higher = stronger binding; endpoint: binding fitness
Notes: single substitutions, most at no-binding floor
Starting sequence: JUN, bZIP domain (human); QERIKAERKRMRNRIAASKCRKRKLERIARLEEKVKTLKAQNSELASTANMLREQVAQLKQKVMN; partner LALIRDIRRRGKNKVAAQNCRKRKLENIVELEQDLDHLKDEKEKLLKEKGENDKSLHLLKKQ
Substitution = T48G; result = -1.46 natural log
Substitution = K39H; result = -1.43 natural log
Substitution = R30G; result = -1.31 natural log
Substitution = A49N; result = -1.45 natural log
Substitution = A29L; result = -1.45 natural log
Substitution = V35E; result = -1.34 natural log
Substitution = N42Q; result = -1.43 natural log
Substitution = T37A; result = -1.48 natural log
Substitution = E44K; result = -1.58 natural log
Substitution = A46D; result = -1.52 natural log
Substitution = A46F; result = -1.15 natural log
Substitution = S43L; result = -1.32 natural log
Substitution = I28M; result = -1.58 natural log
Substitution = L45W; result = -1.44 natural log
Substitution = Q55I; result = -1.45 natural log
Substitution = L38I; result = -1.52 natural log
Substitution = E54G; result = -1.44 natural log
Substitution = I28A; result = -1.42 natural log
Substitution = S47E; result = -1.35 natural log
Substitution = T48M; result = -1.35 natural log

Series 2 — target: CCNB3, cyclin fold, Cln2 fusion (human); technique: yeast growth competition, sequencing; medium: yeast; notes: weak parent motif; reference: not given; reading: higher = stronger binding; endpoint: normalised enrichment score
Starting sequence: HIRA docking peptide (human); SLSKRKLELEVET
Substitution = E8A; result = 0.467
Substitution = T13A; result = 0.518
Substitution = L9F; result = 0.182
Substitution = K4A; result = -0.0954
Substitution = E12A; result = -0.0995
Substitution = L9A; result = 0.413
Substitution = V11A; result = -0.066

Series 3 — technique: protein binding microarray; form: double-stranded DNA, one strand shown; medium: in vitro; tested at: not given; reference: not given; reading: higher = stronger binding; endpoint: E-score
Target: Histone acetyltransferase KAT6A, winged helix 2, GST fusion (KAT6A, Homo sapiens, UniProt Q92794, residues 85-181)
Notes: 8-mer, flanks averaged, mean of 2 arrays, mostly near background
Construct (chain): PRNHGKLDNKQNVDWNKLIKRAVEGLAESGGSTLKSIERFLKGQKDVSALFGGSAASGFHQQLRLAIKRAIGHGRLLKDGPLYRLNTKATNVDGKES
Oligonucleotide = AAGATAAC; result = -0.188
Oligonucleotide = ACGTACGC; result = -0.176
Oligonucleotide = CCGTTAAA; result = -0.148
Oligonucleotide = ATGTCCGC; result = -0.106
Oligonucleotide = ACCATAGA; result = -0.0343
Oligonucleotide = ACTACGTC; result = -0.108
Oligonucleotide = AGTTCGAC; result = 0.0379
Oligonucleotide = AAGTGTCT; result = -0.0903
Oligonucleotide = ACGTGGTC; result = -0.252
Oligonucleotide = CATTTGCA; result = -0.0361
Oligonucleotide = AATCTCGC; result = 0.171
Oligonucleotide = CACCTCTC; result = -0.168
Oligonucleotide = CAAGCCAA; result = 0.094
Oligonucleotide = ATAATGTG; result = -0.0646
Oligonucleotide = ACGTTTCG; result = -0.092
Oligonucleotide = AATACTCA; result = 0.129
Oligonucleotide = ACGGACTG; result = -0.189
Oligonucleotide = AGACATAT; result = -0.105
Oligonucleotide = AATACCGG; result = 0.0511
Oligonucleotide = GCACGCAA; result = 0.0879
Oligonucleotide = AAACGCTA; result = -0.168
Oligonucleotide = GACCGGCA; result = 0.0708
Oligonucleotide = AAATCACA; result = 0.0228
Oligonucleotide = ATGCCGGA; result = 0.152

Other studies, line by line
Substance = PhoQ, residues 284 288 289 292 302 303 NSMLDC; target = PhoP, residues 12 14 15 18 19 SPWRL (Escherichia coli, UniProt P23836); assay = Sort-seq, item: YFP reporter; test system = E. coli; conditions = PhoQ-PhoP variant library, together with: 10 µM Mg2+; how to read = reference: high Mg2+ state, higher = stronger signaling; endpoint = fold induction; result = 4.24

Repeated from above (series 3):
Oligonucleotide = AATACTCA; result = 0.129
Oligonucleotide = ACGGACTG; result = -0.189
Oligonucleotide = AGACATAT; result = -0.105
Oligonucleotide = AATACCGG; result = 0.0511
Oligonucleotide = GCACGCAA; result = 0.0879
